Measured values collected from several papers.
Compare with care: the assays were run in different laboratories.

SMILES	species	medium	route	dose	setting	endpoint	result
COC1C=COC2(C)Oc3c(C)c(O)c4c(c3C2=O)C2=NC3(CCN(CC(C)C)CC3)NC2=C(NC(=O)C(C)=CC=CC(C)C(O)C(C)C(O)C(C)C(OC(=O)Nc2cnccn2)C1C)C4=O (stereo not shown)	female CD-1 mouse	plasma	intravenous	5 mg/kg		Vd	0.8 L/kg
Nc1ccn(C[C@@H](CO)OCP(=O)(O)OCCCS(=O)(=O)CCCCCCCCCCCCCC2CCC2)c(=O)n1	mouse	plasma	intravenous	3 mg/kg	single dose	Vd	4 L/kg
Cc1ccc2oc(-c3c4c(N)n[nH]c(=O)c4nn3-c3ccc(NC(=O)/C=C/CN(C)C)cc3)c(C)c2c1	mouse	plasma	intravenous	1 mg/kg		Vd	4.82 L/kg
Cc1cc(C)c(S(=O)(=O)N(CC(=O)O)c2ccc(Nc3ccnc(N4CCCC4)n3)cc2)c(C)c1	nude mouse	plasma	intraperitoneal	100 mg/kg	single dose	Vd/F	15.9 L/kg
O=C(Cc1ccc(-c2ccc(OCCN3CCOCC3)cc2)cn1)NCc1ccc(F)cc1	CD-1 mouse	plasma	intravenous	2 mg/kg		Vd	3.23 L/kg
CN1/C(=C/C=C/c2cc(-c3ccccc3)cc(-c3ccccc3)[o+]2)C(C)(C)c2ccccc21	male CD-1 mouse	plasma	intravenous	1 mg/kg	single dose	Vd	12.2 L/kg
COC(=O)c1ccc2c(c1)NC(=O)/C2=C(\Nc1ccc2c(c1)CCN2C(=O)CN1CCOCC1)c1ccccc1	CD-1 mouse	blood	intravenous	10 mg/kg		Vd	1.79 L/kg
COc1cccc2c1C(=O)c1c(O)c3c(c(O)c1C2=O)C[C@@](O)(C(=O)CO)C[C@@H]3O[C@H]1C[C@H](N)[C@@H](O)[C@H](C)O1	male Kunming mouse	plasma	intravenous	5 mg/kg		Vd	1.11 L/kg
C[C@H]1CN(C(=O)c2cn(-c3ccnc(N)n3)c3cc(C#CC4(O)CCCCC4)ccc23)CCN1	CD-1 mouse	plasma	intravenous	1 mg/kg		Vd	2.57 L/kg
COc1ccccc1NC(=O)OC1C(C)C(OC)C=COC2(C)Oc3c(C)c(O)c4c(c3C2=O)C2=NC3(CCN(CC(C)C)CC3)NC2=C(NC(=O)C(C)=CC=CC(C)C(O)C(C)C(O)C1C)C4=O (stereo not shown)	female CD-1 mouse	plasma	intravenous	5 mg/kg		Vd	4.5 L/kg
Cc1cc(O)cc(O)c1C(=O)c1c2c3c(c(O)cc(C)c3oc1=O)C(=O)c1c(O)cc(O)cc1-2	male Kunming mouse	plasma	intraperitoneal	15 mg/kg		Vd/F	0.328 L/kg
COC1C=COC2(C)Oc3c(C)c(O)c4c(c3C2=O)C2=NC3(CCN(CC(C)C)CC3)NC2=C(NC(=O)C(C)=CC=CC(C)C(O)C(C)C(O)C(C)C(OC(=O)Nc2cccnn2)C1C)C4=O (stereo not shown)	female CD-1 mouse	plasma	intravenous	5 mg/kg		Vd	0.5 L/kg
O=C1OC2(c3ccccc31)c1cc(I)c(O)c(I)c1Oc1c2cc(I)c(O)c1I	female C57BL/6 mouse	plasma	intraperitoneal	50 mg/kg		Vd/F	2.8 L/kg

A few entries again:
SMILES	species	medium	route	dose	setting	endpoint	result
Cc1ccc2oc(-c3c4c(N)n[nH]c(=O)c4nn3-c3ccc(NC(=O)/C=C/CN(C)C)cc3)c(C)c2c1	mouse	plasma	intravenous	1 mg/kg		Vd	4.82 L/kg
